Measured values collected from several papers.
Each line is one published result; not all experiments were run side by side. Several values in a cell are separate wells, animals, samples, runs or records. ± marks the error that the study gave.
CYP2C19: Cytochrome P450 2C19 (CYP2C19, Homo sapiens, UniProt P33261)
UniProt P33261, sequence (whole entry, looked up): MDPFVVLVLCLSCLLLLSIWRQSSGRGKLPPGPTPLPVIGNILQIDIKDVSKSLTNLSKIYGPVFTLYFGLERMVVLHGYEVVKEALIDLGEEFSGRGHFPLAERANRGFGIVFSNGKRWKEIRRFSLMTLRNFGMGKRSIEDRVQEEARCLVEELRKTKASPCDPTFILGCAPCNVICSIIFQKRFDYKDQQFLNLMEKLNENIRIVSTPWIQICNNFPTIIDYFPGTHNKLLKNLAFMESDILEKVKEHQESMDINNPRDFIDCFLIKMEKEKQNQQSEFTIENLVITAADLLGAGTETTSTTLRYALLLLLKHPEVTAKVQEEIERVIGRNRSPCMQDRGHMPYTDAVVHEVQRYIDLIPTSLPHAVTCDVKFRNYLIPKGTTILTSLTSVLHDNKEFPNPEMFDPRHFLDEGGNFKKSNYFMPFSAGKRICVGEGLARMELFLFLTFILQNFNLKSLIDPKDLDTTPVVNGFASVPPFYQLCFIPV
UniProt P08684, sequence (whole entry, looked up): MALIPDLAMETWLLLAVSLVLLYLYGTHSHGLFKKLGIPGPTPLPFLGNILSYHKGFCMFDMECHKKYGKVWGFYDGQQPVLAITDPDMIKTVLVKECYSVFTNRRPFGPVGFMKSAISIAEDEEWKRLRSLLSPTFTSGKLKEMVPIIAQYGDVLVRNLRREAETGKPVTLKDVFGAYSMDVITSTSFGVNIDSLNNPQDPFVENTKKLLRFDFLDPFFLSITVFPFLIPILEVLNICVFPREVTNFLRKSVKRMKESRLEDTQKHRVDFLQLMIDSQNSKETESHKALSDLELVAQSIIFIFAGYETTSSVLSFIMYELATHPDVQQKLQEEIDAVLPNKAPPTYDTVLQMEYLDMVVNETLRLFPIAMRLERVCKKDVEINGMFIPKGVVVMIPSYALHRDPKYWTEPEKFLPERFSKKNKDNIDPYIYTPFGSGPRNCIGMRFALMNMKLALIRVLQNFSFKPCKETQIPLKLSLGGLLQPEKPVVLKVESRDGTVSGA

Compound	target or system	assay	system	setting	scale	quantity	result
C[C@]12CC[C@@H]3c4ccc(O)cc4C[C@@H](CCCCCCCCC[S+]([O-])CCCC(F)(F)C(F)(F)F)[C@H]3[C@@H]1CC[C@@H]2O (stereo partly shown)	LCC2 tamoxifen-resistant	CCK-8	–	200 nM	relative to: untreated	viability	83.7% and 89.8% and 93.6%
Cc1cc(Nc2ccc(S(F)(F)(F)(F)F)cc2)n2nc(C(C)(F)F)nc2n1	Plasmodium falciparum	12-lead Holter ECG	human malaria patients	oral, 250 mg, QTc above 500 ms	–	patients with QTcF above threshold	0%
COc1ccc2nc([S+]([O-])Cc3ncc(CO)c(OC)c3C)[nH]c2c1 (stereo not shown)	CYP2C19	CYP2C19 probe metabolite	human, plasma	oral, 20 mg omeprazole, probe cocktail	–	Tmax	≤ 3 h
COc1c(N2C[C@@H]3CCCN[C@@H]3C2)c(F)cc2c(=O)c(C(=O)O)cn(C3CC3)c12	–	–	male Hartley guinea pig, anaesthetized	intravenous infusion, 5 mg/kg, 10 min infusion, post-infusion	–	QTc interval	313 ± 0.8 ms
CCC(CC)C(=O)Oc1cccc(C(O)CCN)c1.O=CO (stereo not shown)	porcine liver esterase	–	–	99 µM, 30 min	relative to: time 0 min	compound remaining	60.8%
C[C@H](CS)C(=O)N1CCC[C@H]1C(=O)O	–	–	male Hartley guinea pig, anaesthetized	intravenous infusion, 30 mg/kg, 10 min infusion, post-infusion	–	QTc interval	337 ± 0.2 ms
N#C[C@@]1(c2ccc3c(N)ncnn23)O[C@H](COC(=O)C2CCCCC2)[C@@H](O)[C@H]1O	human respiratory syncytial virus	viral replication, viral protein ELISA	HEp-2, A2	5 days	relative to: CC50 over EC50	selectivity index	86
CC(C)NCC(O)c1ccc(NS(C)(=O)=O)cc1 (racemic)	–	–	male Hartley guinea pig, anaesthetized	intravenous infusion, 1 mg/kg, 10 min infusion, post-infusion	–	QTc interval	369 ± 0.8 ms
CC[C@H](C)[C@H](N)C(=O)OC[C@H]1O[C@@](C#N)(c2ccc3c(N)ncnn23)[C@H](O)[C@@H]1O	human respiratory syncytial virus	viral replication, viral protein ELISA	HEp-2, A2	5 days	relative to: CC50 over EC50	selectivity index	> 68.5
COc1cc2ncnc(Nc3ccc(Oc4ccccc4)c(C)c3C)c2cc1OC.Cl	MeWo (NF1 mutant)	resazurin	–	0.1 µM, 72 h, unit not given, together with: trametinib	relative to: DMSO	viability	0.959
C[C@H](N)C(=O)O	Bacillus subtilis	–	NCIB3610, MOPS medium	1 mM, 1 mM equimolar amino acid mixture	–	uptake half-time	16 h
COc1cccc2c1C(=O)c1c(O)c3c(c(O)c1C2=O)C[C@@](O)(C(=O)CO)C[C@@H]3O[C@H]1C[C@H](N)[C@H](O)[C@H](C)O1	BNL mouse liver cells	SRB	–	0.01 µM, 10% fetal bovine serum	–	viability	99.3%
C=CC(=O)NC1CCN(c2ncc3ncnc(Nc4ccc(Oc5ccc6c(c5)ncn6C)c(C)c4)c3n2)CC1	–	item: total radioactivity	healthy male human, whole blood and plasma	oral, 60 mg, 72 h, geometric mean	–	blood-to-plasma ratio	2.07
NCCC(O)c1cccc(OC(=O)C2CCCCC2)c1.O=CO (stereo not shown)	porcine liver esterase	–	–	99 µM, 5 min	relative to: time 0 min	compound remaining	84.6%
Nc1nc(NS(=O)(=O)c2ccccc2)ncc1-c1nc2ccccc2s1	BGM	cytotoxicity	–	72 h	–	maximum non-toxic concentration	100 µg/mL
N[C@@H](CC(=O)O)C(=O)O	Bacillus subtilis	–	168, S7 medium	1 mM, equimolar amino acid mixture	–	uptake half-time	10.6 h

Compound	target or system	assay	system	setting	scale	quantity	result
O=C(CCCN1CCC(O)(c2ccc(Cl)cc2)CC1)c1ccc(F)cc1	–	–	male Hartley guinea pig, anaesthetized	intravenous infusion, 0.1 mg/kg, 10 min infusion, post-infusion	–	QTc interval	346 ± 0.3 ms
CCCC(CCC)C(=O)Oc1cccc(C(O)CCN)c1.O=CO (stereo not shown)	porcine liver esterase	–	–	99 µM, 5 min	relative to: time 0 min	compound remaining	99.8%
N[C@@H](Cc1c[nH]cn1)C(=O)O	Bacillus subtilis	–	NCIB3610, MOPS medium	1 mM, 1 mM equimolar amino acid mixture	–	uptake half-time	17.1 h
COc1cc(N)c(Cl)cc1C(=O)NC1CCN(CCCOc2ccc(F)cc2)CC1OC (stereo not shown)	–	–	male Hartley guinea pig, anaesthetized	intravenous infusion, 1 mg/kg, 10 min infusion, post-infusion	–	QTc interval	361 ± 0.7 ms
N[C@@H](CS)C(=O)O	Bacillus subtilis	–	NCIB3610, MOPS medium	1 mM, 1 mM equimolar amino acid mixture	–	uptake half-time	17.3 h
Cc1noc(C)c1Cn1cc(N2C(=O)CN(Cc3cccc(O)c3)C2=O)cn1	human blood lymphocytes	–	–	400 µg/mL, 21 h	–	aberrant cells without gaps	0%
N[C@@H](CCC(=O)O)C(=O)O	Bacillus subtilis	amino acid uptake	168, S7 medium	together with: equimolar amino acid mixture 1 mM	–	half-time of uptake	9 h
CC(C)[C@H](N)C(=O)NCCCS(=O)(=O)O	–	–	human both sexes, plasma	oral, 340 mg BID days 8-13, QD day 14, day 14, fed capsule	–	AUC(0-12)	13800 ng·h/mL
COc1ccc2[nH]c([S+]([O-])Cc3ncc(C)c(OC)c3C)nc2c1 (stereo not shown)	CYP2C19	–	human, plasma	oral, 20 mg, Day 14, together with: encorafenib at steady state	relative to: Day -7	total AUClast decrease	17%
NC(=O)C[C@H](N)C(=O)O	Bacillus subtilis	–	NCIB3610, MOPS medium	1 mM, 1 mM equimolar amino acid mixture	–	uptake half-time	4.5 h
Cc1ccc(S(=O)(=O)Nc2nc(N)c(-c3nc4ccccc4s3)c(-c3ccc(F)cc3)n2)cc1	BGM	cytotoxicity	–	72 h	–	maximum non-toxic concentration	100 µg/mL
N[C@@H](CO)C(=O)O	Bacillus subtilis	–	NCIB3610, MOPS medium	1 mM, 1 mM equimolar amino acid mixture	–	uptake half-time	18.2 h
Cc1cc(N)c2c(OCC(C)(C)C(=O)NC(C)C)cccc2n1	Salmonella typhimurium	reverse mutation, plate incorporation	TA100	500 µg/plate, with rat liver S9	–	mean revertant colonies	95 colonies/plate
Cc1cc(C)c(CNC(=O)c2cc(Cl)c3c(c2C)O[C@@](C)([C@H]2CC[C@H](N(C)C)CC2)O3)c(=O)[nH]1	Albumin (ALB, Homo sapiens, UniProt P02768)	ultracentrifugation	4% human serum albumin solution	1000 ng/mL, 160 min	–	unbound fraction	0.613
CC[C@H]1[C@@H](O)[C@@H]2[C@H](CC[C@]3(C)[C@@H]([C@H](C)CCNC(=O)NS(=O)(=O)c4ccc(C(C)(C)C)cc4)CC[C@@H]23)[C@@]2(C)CC[C@@H](O)C[C@@H]12	Cytochrome P450 3A4 (CYP3A4, Homo sapiens, UniProt P08684)	substrate	human, plasma	10 mg, alone, study day 1	–	half-life mean	10.5 h

Excerpt of the above:
Compound	target or system	assay	system	setting	scale	quantity	result
COc1ccc2nc([S+]([O-])Cc3ncc(CO)c(OC)c3C)[nH]c2c1 (stereo not shown)	CYP2C19	CYP2C19 probe metabolite	human, plasma	oral, 20 mg omeprazole, probe cocktail	–	Tmax	≤ 3 h
COc1cc(N)c(Cl)cc1C(=O)NC1CCN(CCCOc2ccc(F)cc2)CC1OC (stereo not shown)	–	–	male Hartley guinea pig, anaesthetized	intravenous infusion, 1 mg/kg, 10 min infusion, post-infusion	–	QTc interval	361 ± 0.7 ms
